Results from different studies.
Lines come from different studies, so protocols differ. Values joined by “and” are separate records of one study, mostly repeats; a detail may differ.
B1: mycE 1-399 (Micromonospora griseorubida, UniProt Q83WF2); chain MTAQTEFDEATVQDVVRLAGGHDSELRELTQKYDPAMISRLLVAEILSRCPPPSNDTPVLVELAIVHGSERFRHFLRVVRDSPIRPVGADEGFVGMLVEYELTELLRELFGVTHERPAGVRGTKLFPYLTDDEEAVEQIGTYLLAAQQGTEAVLAGCGSRKPDLSELSSRYFTPKFGFLHWFTPHYDRHFRDYRNQQVRVLEIGVGGYKHPEWGGGSLRMWKSFFPRGQIYGLDIMDKSHVDELRIRTIQGDQNDAEFLDRIARRYGPFDIVIDDGSHINAHVRTSFAALFPHVRPGGLYVIEDMWTAYWPGFGGQADPQECSGTSLGLLKSLIDAIQHQELPSDPNRSPGYVDRNIVGLHVYHNVAFVEKGRNDEGGIPTWIPRDFESLVQASSGGAT
B2: capsid protein residues 15-end 15-324 (Staphylococcus phage 80alpha, UniProt A4ZFB3); sequence looked up; chain ASNNVKPQVFNPDNVMMHEKKDGTLMNEFTTPILQEVMENSKIMQLGKYEPMEGTEKKFTFWADKPGAYWVGEGQKIETSKATWVNATMRAFKLGVILPVTKEFLNYTYSQFFEEMKPMIAEAFYKKFDEAGILNQGNNPFGKSIAQSIEKTNKVIKGDFTQDNIIDLEALLEDDELEANAFISKTQNRSLLRKIVDPETKERIYDRNSDSLDGLPVVNLKSSNLKRGELITGDFDKLIYGIPQLIEYKIDETAQLSTVKNEDGTPVNLFEQDMVALRATMHVALHIADDKAFAKLVPADKRTDSVPGEV
B3: HSP90-7 29-823 (Arabidopsis thaliana, UniProt Q9STX5); sequence looked up; chain NAEESSDDVTDPPKVEEKIGGHGGLSTDSDVVHRESESMSKKTLRSNAEKFEFQAEVSRLMDIIINSLYSNKDIFLRELISNASDALDKIRFLALTDKDVLGEGDTAKLEIQIKLDKAKKILSIRDRGIGMTKEDLIKNLGTIAKSGTSAFVEKMQSSGDLNLIGQFGVGFYSAYLVADYIEVISKHNDDSQYVWESKANGKFAVSEDTWNEPLGRGTEIRLHLRDEAGEYLEESKLKELVKRYSEFINFPISLWASKEVETEVPVEEDESADEETETTSTEEEKEEDAEEEDGEKKQKTKKVKETVYEWELLNDVKAIWLRSPKEVTEEEYTKFYHSLSKDFTDEKPMAWSHFNAEGDVEFKAVLYVPPKAPHDLYESYYNSNKANLKLYVRRVFISDEFDELLPKYLSFLKGLVDSDTLPLNVSREMLQQHSSLKTIKKKLIRKALDMIRKLAEEDPDEIHDDEKKDVEKSGENDEKKGQYTKFWNEFGKSVKLGIIEDAANRNRLAKLLRFETTKSDGKLTSLDQYIKRMKKSQKDIFYITGSSKEQLEKSPFLERLIKKGYEVIFFTDPVDEYLMQYLMDYEDKKFQNVSKEGLKVGKDSKDKELKEAFKELTKWWKGNLASENVDDVKISNRLADTPCVVVTSKFGWSANMERIMQSQTLSDANKQAYMRGKRVLEINPRHPIIKELKDRIASDPEDESVKETAQLMYQTALIESGFILTDPKDFAARIYNSVKSGLNISPDAVADEEIEAAEEPETSEATETKSDDLAGGLNIEAEPVEQQEENTKDEL
B4: zwf 1-509 (Synechocystis sp. PCC 6803, UniProt P73411); chain MVTLLENPFRTGLRQERTPEPLILTIFGASGDLTQRKLVPAIYQMKRERRLPPELTVVGFARRDWSHDHFREQMRKGIEEFSTGIGSEDLWNEFAQGLFYCSGNMDDPESYLKLKNFLGELDEKRNTRGNRVFYLAVSPNFFPPGIKQLGAAGMLSDPVKSRIVIEKPFGRDLSSAQSLNRVVQSVCKENQVYRIDHYLGKETVQNLMVFRFANAIFEPLWNRQFVDHVQITVAETVGVEERAGYYESAGALRDMVQNHLMQLFCLTAMDPPNAIDADSIRNEKVKVLQATRLADINNLENAGIRGQYKAGWMGGKPVPGYREEPGVDPSSTTPTFAALKLMVDNWRWQGVPFYLRTGKRMPKKVSEIAIQFRQVPLLIFQSVAHQANPNVLSLRIQPNEGISLRFEAKMPGSELRTRTVDMDFSYGSSFGVAAADAYHRLLLDCMLGDQTLFTRADEVEEAWRVVTPVLSAWDAPSDPLSMPLYEAGTWEPAEAEWLINKDGRRWRRL
B5: fnr (Escherichia coli, UniProt P0A9E5); sequence looked up; chain MIPEKRIIRRIQSGGCAIHCQDCSISQLCIPFTLNEHELDQLDNIIERKKPIQKGQTLFKAGDELKSLYAIRSGTIKSYTITEQGDEQITGFHLAGDLVGFDAIGSGHHPSFAQALETSMVCEIPFETLDDLSGKMPNLRQQMMRLMSGEIKGDQDMILLLSKKNAEERLAAFIYNLSRRFAQRGFSPREFRLTMTRGDIGNYLGLTVETISRLLGRFQKSGMLAVKGKYITIENNDALAQLAGHTRNVA
B6: RBKS E154A (Homo sapiens, UniProt Q9H477); sequence looked up; chain MAASGEPQRQWQEEVAAVVVVGSCMTDLVSLTSRLPKTGETIHGHKFFIGFGGKGANQCVQAARLGAMTSMVCKVGKDSFGNDYIENLKQNDISTEFTYQTKDAATGTASIIVNNEGQNIIVIVAGANLLLNTEDLRAAANVISRAKVMVCQLAITPATSLEALTMARRSGVKTLFNPAPAIADLDPQFYTLSDVFCCNESEAEILTGLTVGSAADAGEAALVLLKRGCQVVIITLGAEGCVVLSQTEPEPKHIPTEKVKAVDTTGAGDSFVGALAFYLAYYPNLSLEDMLNRSNFIAAVSVQAAGTQSSYPYKKDLPLTLF
B7: Teth514_1788 2-296 (Thermoanaerobacter sp. X514, UniProt B0K2C2); chain IKLKRLSDKPVLMPKAENEWERAAVFNTAAIYDNGLFHLIYRATDIGPHAKYGKYISRLGYAVSKDGINFMRLDKPVMSNETEQELRGLEDPRIVKIDGIYYMMYTGFGDRFQDDYRICLATSKNLIDWERKGVVLDEPNKDASLFPEKINGKYVMLHRRYPDIWIAFSDDLKNWYDHKPILKPIPNTWESARVGIGGPPIKTKDGWFLIYHAADDNNVYRLGAVLLDLEDPSKVIARQKEPILEPELGWEKEGYIPNVVFSCGNAVKDDTIYVYYGGADTVIGVAILEMKDIKF
B8: Pah (Rattus norvegicus, UniProt P04176); sequence looked up; chain MAAVVLENGVLSRKLSDFGQETSYIEDNSNQNGAISLIFSLKEEVGALAKVLRLFEENDINLTHIESRPSRLNKDEYEFFTYLDKRTKPVLGSIIKSLRNDIGATVHELSRDKEKNTVPWFPRTIQELDRFANQILSYGAELDADHPGFKDPVYRARRKQFADIAYNYRHGQPIPRVEYTEEEKQTWGTVFRTLKALYKTHACYEHNHIFPLLEKYCGFREDNIPQLEDVSQFLQTCTGFRLRPVAGLLSSRDFLGGLAFRVFHCTQYIRHGSKPMYTPEPDICHELLGHVPLFSDRSFAQFSQEIGLASLGAPDEYIEKLATIYWFTVEFGLCKEGDSIKAYGAGLLSSFGELQYCLSDKPKLLPLELEKTACQEYSVTEFQPLYYVAESFSDAKEKVRTFAATIPRPFSVRYDPYTQRVEVLDNTQQLKILADSINSEVGILCNALQKIKS
B9: spo0J K252A (Bacillus subtilis, UniProt P26497); chain MAKGLGKGINALFNQVDLSEETVEEIKIADLRPNPYQPRKHFDDEALAELKESVLQHGILQPLIVRKSLKGYDIVAGERRFRAAKLAGLDTVPAIVRELSEALMREIALLENLQREDLSPLEEAQAYDSLLKHLDLTQEQLAKRLGKSRPHIANHLRLLTLPENIQQLIAEGTLSMGHGRTLLGLKNKNKLEPLVQKVIAEQLNVRQLEQLIQQLNQNVPRETKKKEPVKDAVLKERESYLQNYFGTTVNIARQKKKGKIEIEFFSNEDLDRILELLSERES
B10: ACAT1 35-427 Y90F (Homo sapiens, UniProt P24752); pY407; chain SKPTLKEVVIVSATRTPIGSFLGSLSLLPATKLGSIAIQGAIEKAGIPKEEVKEAFMGNVLQGGEGQAPTRQAVLGAGLPISTPCTTINKVCASGMKAIMMASQSLMCGHQDVMVAGGMESMSNVPYVMNRGSTPYGGVKLEDLIVKDGLTDVYNKIHMGSCAENTAKKLNIARNEQDAYAINSYTRSKAAWEAGKFGNEVIPVTVTVKGQPDVVVKEDEEYKRVDFSKVPKLKTVFQKENGTVTAANASTLNDGAAALVLMTADAAKRLNVTPLARIVAFADAAVEPIDFPIAPVYAASMVLKDVGLKKEDIAMWEVNEAFSLVVLANIKMLEIDPQKVNINGGAVSLGHPIGMSGARIVGHLTHALKQGEYGLASICNGGGGASAMLIQKL
B11: encD (Myxococcus xanthus, UniProt Q1D9P3); sequence looked up; chain MAKNSNPSAFDRDFGYLMPFLDRVAAAASDLEDASARAELTRLMVEEKARWQRIQELLGGAGGRGAAAPTPAREAPAEAPRLARGSADELHEAAPFATGLTVGSLRGSR
B12: Tln1 2137-2541 (Mus musculus, UniProt P26039); chain DEATKGTRALEATTEHIRQELAVFCSPEPPAKTSTPEDFIRMTKGITMATAKAVAAGNSCRQEDVIATANLSRRAIADMLRACKEAAFHPEVAPDVRLRALHYGRECANGYLELLDHVLLTLQKPNPDLKQQLTGHSKRVAGSVTELIQAAEAMKGTEWVDPEDPTVIAENELLGAAAAIEAAAKKLEQLKPRAKPKEADESLNFEEQILEAAKSIAAATSALVKAASAAQRELVAQGKVGAIPANALDDGQWSQGLISAARMVAAATNNLCEAANAAVQGHASQEKLISSAKQVAASTAQLLVACKVKADQDSEAMKRLQAAGNAVKRASDNLVKAAQKAAAFEDQENETVVVKEKMVGGIAQIIAAQEEMLRKERELEEARKKLAQIRQQQYKFLPSELRDEH
B13: human TGM3; sequence looked up; chain 1 AALGVQSINWQTAFNRQAHHTDKFSSQELILRRGQNFQVLMIMNKGLGSNERLEFIVSTGPYPSESAMTKAVFPLSNGSSGGWSAVLQASNGNTLTISISSPASAPIGRYTMALQIFSQGGISSVKLGTFILLFNPWLNVDSVFMGNHAEREEYVQEDAGIIFVGSTNRIGMIGWNFGQFEEDILSICLSILDRSLNFRRDAATDVASRNDPKYVGRVLSAMINSNDDNGVLAGNWSGTYTGGRDPRSWNGSVEILKNWKKSGFSPVRYGQCWVFAGTLNTALRSLGIPSRVITNFNSAHDTDRNLSVDVYYDPMGNPLDKGSDSVWNFHVWNEGWFVRSDLGPSYGGWQVLDATPQERSQGVFQCGPASVIGVREGDVQLNFDMPFIFAEVNADRITWLYDNTTGKQWKNSVNSHTIGRYISTKAVGSNARMDVTDKYKYPEGSDQERQVFQKALGKLKPNTPFA; chain 2 ATSSMGLETEEQEPSIIGKLKVAGMLAVGKEVNLVLLLKNLSRDTKTVTVNMTAWTIIYNGTLVHEVWKDSATMSLDPEEEAEHPIKISYAQYEKYLKSDNMIRITAVCKVPDESEVVVERDIILDNPTLTLEVLNEARVRKPVNVQMLFSNPLDEPVRDCVLMVEGSGLLLGNLKIDVPTLGPKEGSRVRFDILPSRSGTKQLLADFSCNKFPAIKAMLSIDVAE
B14: Nefl 85-543 (Mus musculus, UniProt P08551); sequence looked up; chain SIRTQEKAQLQDLNDRFASFIERVHELEQQNKVLEAELLVLRQKHSEPSRFRALYEQEIRDLRLAAEDATNEKQALQGEREGLEETLRNLQARYEEEVLSREDAEGRLMEARKGADEAALARAELEKRIDSLMDEIAFLKKVHEEEIAELQAQIQYAQISVEMDVSSKPDLSAALKDIRAQYEKLAAKNMQNAEEWFKSRFTVLTESAAKNTDAVRAAKDEVSESRRLLKAKTLEIEACRGMNEALEKQLQELEDKQNADISAMQDTINKLENELRSTKSEMARYLKEYQDLLNVKMALDIEIAAYRKLLEGEETRLSFTSVGSITSGYSQSSQVFGRSAYSGLQSSSYLMSARSFPAYYTSHVQEEQTEVEETIEATKAEEAKDEPPSEGEAEEEEKEKEEGEEEEGAEEEEAAKDESEDTKEEEEGGEGEEEDTKESEEEEKKEESAGEEQVAKKKD
Chain of UniProt Q96P16 (whole entry, looked up): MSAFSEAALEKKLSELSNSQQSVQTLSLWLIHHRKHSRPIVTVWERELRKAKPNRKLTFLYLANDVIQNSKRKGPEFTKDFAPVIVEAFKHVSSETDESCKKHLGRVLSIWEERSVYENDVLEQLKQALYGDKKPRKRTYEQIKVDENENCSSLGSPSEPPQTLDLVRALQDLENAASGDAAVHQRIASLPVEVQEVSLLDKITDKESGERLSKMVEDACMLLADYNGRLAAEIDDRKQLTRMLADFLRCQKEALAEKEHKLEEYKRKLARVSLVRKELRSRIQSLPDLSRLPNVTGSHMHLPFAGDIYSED
Chain of UniProt P76594 (whole entry, looked up): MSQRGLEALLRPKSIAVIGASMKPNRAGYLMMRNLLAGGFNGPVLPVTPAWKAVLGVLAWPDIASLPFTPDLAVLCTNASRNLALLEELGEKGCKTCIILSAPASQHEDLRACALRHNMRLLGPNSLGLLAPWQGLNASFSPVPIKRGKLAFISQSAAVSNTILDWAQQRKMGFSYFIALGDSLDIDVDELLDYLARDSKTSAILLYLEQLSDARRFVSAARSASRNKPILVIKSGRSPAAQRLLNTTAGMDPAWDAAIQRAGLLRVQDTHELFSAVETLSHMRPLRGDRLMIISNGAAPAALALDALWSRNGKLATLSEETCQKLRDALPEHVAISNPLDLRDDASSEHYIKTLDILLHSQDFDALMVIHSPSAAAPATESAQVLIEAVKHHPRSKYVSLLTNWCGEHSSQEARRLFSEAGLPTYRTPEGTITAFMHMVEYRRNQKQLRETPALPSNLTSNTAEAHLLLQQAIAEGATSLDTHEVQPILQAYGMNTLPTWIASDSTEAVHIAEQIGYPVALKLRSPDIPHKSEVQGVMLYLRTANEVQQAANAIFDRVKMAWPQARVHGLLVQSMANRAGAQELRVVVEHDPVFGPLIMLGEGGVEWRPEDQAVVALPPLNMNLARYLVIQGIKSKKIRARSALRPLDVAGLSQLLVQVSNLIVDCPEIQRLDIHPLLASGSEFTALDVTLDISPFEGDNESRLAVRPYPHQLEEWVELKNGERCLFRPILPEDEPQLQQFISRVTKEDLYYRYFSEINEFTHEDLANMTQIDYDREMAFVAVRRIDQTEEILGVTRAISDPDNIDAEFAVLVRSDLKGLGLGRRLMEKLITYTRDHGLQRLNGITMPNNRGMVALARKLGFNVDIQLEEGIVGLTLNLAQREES

| Molecule | tested on | test | system | setting | scale | measurement | result |
| --- | --- | --- | --- | --- | --- | --- | --- |
| B1 (mycE 1-399) | itself | SEC | – | – | – | subunits per oligomer | 4 |
| B2 | itself | cryo-EM | – | – | – | subunits per oligomer | 240 |
| B3 (HSP90-7 29-823) | itself | SEC | – | – | – | subunits per oligomer | 2 |
| B4 (zwf 1-509) | itself | cryo-EM | – | – | – | subunits per oligomer | 3 |
| patZ (Escherichia coli, UniProt P76594) | itself | SEC | – | – | – | subunits per oligomer | 4 |
| B5 (fnr) | itself | SEC-SAXS | – | – | – | subunits per oligomer | 2 |
| RPRD1A (Homo sapiens, UniProt Q96P16) | itself | AUC | – | 4 °C | – | subunits per oligomer | 2 |
| B6 (RBKS E154A) | itself | mass photometry | – | – | – | subunits per oligomer | 2 |
| B7 (Teth514_1788 2-296) | itself | crystal structure | – | – | – | subunits per oligomer | 2 |
| human E-Syt1 | CYB5R4 knockout human cells | PP4 interaction, 3xFLAG-PP4C IP-MS | – | concentration not given | relative to: CYB5R4 KO over parental | log2 fold change | -0.61 |
| B8 (Pah) | itself | SEC | – | – | – | subunits per oligomer | 4 |
| NEFL (Homo sapiens, UniProt P07196) | itself | native MS | – | – | – | subunits per oligomer | 2 |
| B9 (spo0J K252A) | itself | SEC-MALS | – | – | – | subunits per oligomer | 2 |
| B10 (ACAT1 35-427 Y90F) | itself | native gel | – | Y90F mutant | – | subunits per oligomer | 4 |
| B11 (encD) | itself | AUC | – | 20 °C | – | subunits per oligomer | 2 |
| B12 (Tln1 2137-2541) | itself | SEC-MALS | – | – | – | subunits per oligomer | 2 |
| B13 (human TGM3) | PP6C (human) | co-immunoprecipitation, IP-MS | CYB5R4 knockout cells | concentration not given | relative to: CYB5R4 knockout over parental | log2 fold change | 0.63 |
| B14 (Nefl 85-543) | itself | AUC, electron microscopy | – | – | – | subunits per oligomer | 2 and 4 |
